Experimental data collected from several papers.
± marks the error that the study gave.

O=C(O)CC[C@H](NC(=O)O[C@@H](CCCCNC(=O)c1ccc([18F])cc1)C(=O)O)C(=O)O
tissue uptake (mouse, PC-3 PIP/flu xenografts, lung; 180 min): 0.14 ± 0.04 %ID/g

N=C(N)NCc1ccc(C(=O)NCCCC[C@H](NC(=O)N[C@@H](CCC(=O)O)C(=O)O)C(=O)O)cc1[211At]
tissue uptake (SCID mouse, PC-3 xenografts, spleen; 4 h): 3.63 ± 2.4 %ID/g

C[S]1CC[S]2CC[P](CO)(CO)[99Tc+]12.[C-]#[O+].[C-]#[O+].[C-]#[O+]
tissue uptake (female CF-1 mouse, small intestine; intravenous, 4 h): 2.2 %ID/g

C=Cc1cc(O)cc2nc(-c3ccc(O)c([76Br])c3)oc12
tissue uptake (female C57BL/6 mouse, liver; 3 h, high dose, added: estradiol 20 µg blocking): 0.28 ± 0.1 %ID/g

N=C(N)NCc1ccc(C(=O)NCCCC[C@H](NC(=O)N[C@@H](CCC(=O)O)C(=O)O)C(=O)O)cc1[131I]
tissue uptake (SCID mouse, PC-3 xenografts, heart; 4 h): 0.17 ± 0.09 %ID/g

CN[C@](C)(C[18F])C(=O)O
tissue uptake (SCID mouse A549 xenograft, pancreas; 15 min post injection): 57 ± 10 %ID/g

CC[C@H](C)[C@@H]1NC(=O)[C@@H](NC(=O)CNC(=O)c2ccc(F)cc2)CSSC[C@@H]2NC(=O)[C@H](C)NC(=O)CNC(=O)[C@@H]3CCCN3C(=O)[C@@H]3CSSC[C@@H](C(=O)NCC(=O)O)NC(=O)[C@H](Cc4ccc(O)cc4)NC(=O)CNC(=O)[C@H](CC(N)=O)NC(=O)CNC(=O)[C@H](CCCNC(=N)N)NC(=O)[C@H](CSSC[C@H](NC(=O)[C@H](CCCNC(=N)N)NC(=O)[C@H](Cc4ccccc4)NC(=O)[C@H](CC(C)C)NC(=O)[C@H](CC(C)C)NC(=O)[C@H]([C@@H](C)O)NC(=O)CNC(=O)[C@H](CC(C)C)NC(=O)[C@H](CC(=O)O)NC(=O)[C@H]([C@@H](C)O)NC(=O)[C@H](CCCNC(=N)N)NC(=O)[C@H](CCSC)NC(=O)[C@H](CC(N)=O)NC(=O)[C@H](CC(C)C)NC1=O)C(=O)N[C@@H](CCCNC(=N)N)C(=O)N[C@@H](CCCNC(=N)N)C(=O)N[C@@H](CC(=O)O)C(=O)N[C@@H](CO)C(=O)N[C@@H](CC(=O)O)C(=O)N3)NC(=O)[C@H]([C@@H](C)CC)NC2=O [fluorine-18 labelled]
tissue uptake (γ-counting; mouse, pancreas): 0.3 ± 0.1 %ID/g

N=C(N)NCc1ccc(C(=O)NCCCC[C@H](NC(=O)CCCCCCC(=O)NCCCC[C@H](NC(=O)N[C@@H](CCC(=O)O)C(=O)O)C(=O)O)C(=O)O)cc1[131I]
tissue uptake (SCID mouse, PC-3 xenografts, muscle; 2 h): 0.13 ± 0.03 %ID/g

COc1cc2ncnc(Oc3cccc(N[11C](=O)Nc4cc(C(C)(C)C(F)(F)F)on4)c3)c2cc1OC
tissue uptake (Balb/c nude mouse, female, A375 melanoma xenograft, skin; 6.6 MBq, 30 min): 2.45 ± 0.09 %ID/g
